Experimental data gathered from unrelated publications.
Numbered parts are unrelated; each lists some results of a single study.

Study 1 — method: protein-binding microarray; form: double-stranded DNA, one strand shown; matrix: in vitro; concentration: not given; reading: higher = stronger binding
Target: Transcription factor Sp1 (SP1, Homo sapiens, UniProt P08047, residues 1-785, full length assumed)
Chain of UniProt P08047 (whole entry, looked up): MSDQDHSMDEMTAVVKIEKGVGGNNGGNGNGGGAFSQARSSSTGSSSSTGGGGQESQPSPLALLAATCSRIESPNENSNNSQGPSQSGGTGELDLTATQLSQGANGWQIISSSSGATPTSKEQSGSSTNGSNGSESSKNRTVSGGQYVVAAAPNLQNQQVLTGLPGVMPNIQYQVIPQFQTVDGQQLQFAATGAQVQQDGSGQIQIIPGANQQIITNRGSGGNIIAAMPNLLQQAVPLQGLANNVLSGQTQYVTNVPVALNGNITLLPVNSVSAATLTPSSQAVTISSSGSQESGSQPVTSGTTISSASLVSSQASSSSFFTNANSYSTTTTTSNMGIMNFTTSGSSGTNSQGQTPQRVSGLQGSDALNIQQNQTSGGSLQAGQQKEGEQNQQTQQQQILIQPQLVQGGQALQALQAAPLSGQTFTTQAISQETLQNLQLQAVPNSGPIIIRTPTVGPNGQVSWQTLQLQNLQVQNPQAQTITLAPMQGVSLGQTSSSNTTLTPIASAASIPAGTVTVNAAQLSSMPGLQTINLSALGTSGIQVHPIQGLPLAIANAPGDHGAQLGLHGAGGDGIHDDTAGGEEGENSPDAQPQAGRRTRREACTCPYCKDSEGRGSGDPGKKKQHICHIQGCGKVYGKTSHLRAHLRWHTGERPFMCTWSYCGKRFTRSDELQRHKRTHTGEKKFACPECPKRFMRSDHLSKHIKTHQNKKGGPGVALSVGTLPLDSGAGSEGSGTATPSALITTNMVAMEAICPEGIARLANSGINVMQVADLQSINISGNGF
Setting: k-mer, scored over probes, only values ≥0.25
Strand | E-score
GCCCCATA | 0.346
ACATAGCA | 0.283
GGTGGGCA | 0.265
CCCGCCCA | 0.492
AGGGGGAG | 0.322

Study 2 — method: RNA Bind-n-Seq; form: RNA; matrix: in vitro; concentration: not given; reference: input RNA pool; reading: higher = stronger binding
Target: RING finger protein unkempt homolog, zinc fingers 1-6, GST-SBP tag (UNK, Homo sapiens, UniProt Q9C0B0, residues 30-357)
Chain of UniProt Q9C0B0 (30-357, looked up): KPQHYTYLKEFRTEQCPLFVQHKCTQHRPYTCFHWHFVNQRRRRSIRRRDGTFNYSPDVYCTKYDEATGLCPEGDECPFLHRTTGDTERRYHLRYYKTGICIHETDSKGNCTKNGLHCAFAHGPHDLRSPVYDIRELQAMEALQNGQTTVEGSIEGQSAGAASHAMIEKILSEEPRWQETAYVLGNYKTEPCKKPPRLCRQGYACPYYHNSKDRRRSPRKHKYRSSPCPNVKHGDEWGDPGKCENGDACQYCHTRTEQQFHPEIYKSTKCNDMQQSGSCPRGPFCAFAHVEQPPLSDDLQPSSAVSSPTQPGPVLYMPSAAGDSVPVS
Setting: RNA with constant flanks, human-mouse chimeric sites, ends assumed
Constant ends, left off below: GGGAGUUCUACAGUCCGACGAUC … CAACAGAGGAUUGAGCAUCA
Strand | bound/input enrichment
UUACCCGAAAAUGAAGAUGAGCUGGAGAGCACCAACAGGCGCUACACCAAGAGGGACUGCAGCACUUUCCUCAGAACUAGUGAGACGGGCAUUGUGGACCAGGUCAUGGUCACUCUCAAC | 0.158 ratio
CACAGAGCAGCACCUACCCCCUCCUCCUUUCCACACCUGCAAACUCUUUUACUUGGGCUGAAUAUUUAGUGUAAUUAACAUCGCAGCUUUGAGGGCUCUGUGGCAAAUUCCCGGAUUAAA | 1.38 ratio
UUUGUAUUUAUGCUAAGCACACGUGCUGGUGGUCUGGGCAUCAAUCUUGCGACUGCUGAUGUAGUAAUUUUAUAUGACUCAGAUUGGAAUCCGCAAGUUGAUCUUCAGGCUAUGGACCGU | 0.238 ratio
CAGCCUCAGAGCCCAGACUUCCUGGACAUCACCAACCCUAAAGCGGUAUUAGAAAAUGCAUUGAGAAACUUCGCCUGUCUGACGACUGGAGAUGUGAUUGCUAUCAACUACAAUGAGAAG | 0.633 ratio
CACGUGUCUGCAGUACUUGAUGUGGACUACUCUCCCACUGGGAAGGAAUUUGUGUCUGCCAGCUUUGAUAAGUCUAUUAGAAUCUUUCCUGUAGACAAGAGCCGAAGCAGGGAGGUAUAU | 0.316 ratio
GCUCUUGGGAAUGUAAUCAGCGCCUUGGGGGACAAGAGCAAGAGAGCCACCCAUGUCCCUUACAGAGACUCUAAGCUGACAAGACUCCUACAGGAUUCCCUUGGGGGUAACAGCCAAACC | 0.199 ratio

Study 3 — method: protein binding microarray; form: double-stranded DNA, one strand shown; matrix: in vitro; concentration: not given; reference: not given; reading: higher = stronger binding
Target: Histone acetyltransferase KAT6A, both winged helices, GST fusion (KAT6A, Homo sapiens, UniProt Q92794, residues 1-181)
Setting: 8-mer, flanks averaged, mean of 2 arrays, mostly near background
Target sequence (chain): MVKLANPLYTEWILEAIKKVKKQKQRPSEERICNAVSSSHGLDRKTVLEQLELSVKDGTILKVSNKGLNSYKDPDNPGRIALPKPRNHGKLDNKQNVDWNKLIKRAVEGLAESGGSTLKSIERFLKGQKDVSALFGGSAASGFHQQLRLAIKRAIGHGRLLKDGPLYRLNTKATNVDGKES
Strand | E-score
AGAACCGG | 0.218
GGCCCCCA | -0.165
AAACTAAT | 0.00944
CGGCGTTA | 0.273
AAGCGGTC | 0.19

Other studies, line by line
Molecule | target | test | system | setting | how to read | quantity | result
PhoQ, residues 284 288 289 292 302 303 SLCLSL | PhoP, residues 12 14 15 18 19 NNFVT (Escherichia coli, UniProt P23836) | Sort-seq, measured: YFP reporter | E. coli | PhoQ-PhoP variant library, with: 10 µM Mg2+ | reference: high Mg2+ state, higher = stronger signaling | fold induction | 19.1

A few entries again (study 3):
Strand | E-score
CGGCGTTA | 0.273
AAGCGGTC | 0.19
